Measurements of several laboratories.
Each numbered part is a random draw from the data of one study; scales do not carry over between parts. Substitutions count along the parent as printed.

Series 1
Target: Histone acetyltransferase KAT6A, winged helix 2, GST fusion (KAT6A, Homo sapiens, UniProt Q92794, residues 85-181)
Technique: protein binding microarray
Molecule type: double-stranded DNA, one strand shown
Medium: in vitro
Tested at: not given
Setting: 8-mer, flanks averaged, mean of 2 arrays, mostly near background
Relative to: not given
Direction: higher = stronger binding
Quantity: E-score
Construct (chain): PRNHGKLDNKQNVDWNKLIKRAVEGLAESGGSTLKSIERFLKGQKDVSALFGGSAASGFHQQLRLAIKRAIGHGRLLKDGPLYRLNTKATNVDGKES
CTCTGAAC: 0.0491
GCCAGCGC: 0.0463
CACAACAC: -0.0601
TAGCGCCA: 0.149
GGTTTTGA: 0.18
AAAATGTC: 0.0379
ACTCTGCT: 0.0605
ACCCTGCT: -0.0667
AGGTTACC: 0.0321
CAAAAGTC: 0.0245
ACTGGTTG: 0.0449
CTCGTATC: -0.015
GACTGTAC: -0.252
CCAAGATC: 0.0423
AATTTGAT: 0.0404
CGTTTTAG: -0.0263
AATGCCAA: 0.0652
GAAGTACA: -0.0259
GCTCCGGA: 0.00096
GGCTCCGA: 0.102
GGATACAC: -0.0907
TACGCACA: 0.00197
CCGCAACC: 0.187

Series 2
Target: CCNA1, cyclin fold, Cln2 fusion (human)
Technique: yeast growth competition, sequencing
Medium: yeast
Setting: weak parent motif
Relative to: not given
Direction: higher = stronger binding
Quantity: normalised enrichment score
Starting sequence: SCAPER docking peptide (human); SNARRSLNFGGST; partner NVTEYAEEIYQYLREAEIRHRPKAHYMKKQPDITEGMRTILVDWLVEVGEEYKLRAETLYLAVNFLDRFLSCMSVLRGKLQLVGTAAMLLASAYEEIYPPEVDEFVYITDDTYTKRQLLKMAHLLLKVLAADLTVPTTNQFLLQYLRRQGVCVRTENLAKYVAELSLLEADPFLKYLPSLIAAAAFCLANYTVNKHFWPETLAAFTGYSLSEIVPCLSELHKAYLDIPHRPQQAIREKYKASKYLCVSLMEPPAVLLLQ
SNAWRSLNFGGST [R4W]: 0.329
SNYRRSLNFGGST [A3Y]: 0.353
SNARRSSNFGGST [L7S]: 0.459
SNAYRSLNFGGST [R4Y]: 0.218
SNARRSLNFGLST [G11L]: 0.421
SNARRKLNFGGST [S6K]: 0.454
SNDRRSLNFGGST [A3D]: 0.217
SNARRSLNFGGAT [S12A]: 0.804
SNARRWLNFGGST [S6W]: 0.526
SGARRSLNFGGST [N2G]: 0.875
SNARRALNFGGST [S6A]: 0.651
SNARRSLNPGGST [F9P]: 0.243
SNARASLNFGGST [R5A]: 0.0622
SNARRSMNFGGST [L7M]: 0.207
SNARRSLNFGGKT [S12K]: 0.471
SNARRSLNFKGST [G10K]: 0.439
SNARRSLNFGGTT [S12T]: 0.646

Series 3
Target: RNA binding protein fox-1 homolog 2, RRM domain, GST-SBP tag (RBFOX2, Homo sapiens, UniProt O43251-10, residues 100-194)
Technique: RNA Bind-n-Seq
Molecule type: RNA
Medium: in vitro
Tested at: 365 nM
Setting: natural RNA segment, single round, ends assumed
Relative to: no-protein control
Direction: higher = stronger binding
Quantity: RBNS enrichment (R)
Construct (chain): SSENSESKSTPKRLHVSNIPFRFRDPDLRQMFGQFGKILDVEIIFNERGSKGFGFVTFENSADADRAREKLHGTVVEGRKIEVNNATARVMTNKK
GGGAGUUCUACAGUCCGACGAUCUUUACCCAGAGAAGGUGUUUCUAUACAAUGCCCCUACCUAUUUGAAAUUACAUGCUUGCCCAACACACUGUGAAAUAGUUACCAAAAUUUGUACAAAUGCAGCAUCUUCAUGGAAUUCUCGGGUGCCAA: 1.01
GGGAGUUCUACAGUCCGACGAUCAUGGCAGCCUUGGCACAAUGCCUGGGUGUCCUCAUCCUUGCUUUACUCUGGAAAGUGUGGGGAUGGAGAGGAUGGUGCAUUUCCAGUGCUUCCUUACCUGUCAAUAACAAUGGAAUUCUCGGGUGCCAA: 0.246
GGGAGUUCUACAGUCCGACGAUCUUCUUGGUCACAAUAUUUUUUAGUGGAAUUCCUCUCAAGGUUUUUAUACUCCUGUGUAAUAAGACUGAUGCAGAGCCCUGAAUUUCAUUCUGUCUAUGAAUACCUUUUUGUGGAAUUCUCGGGUGCCAA: 0.517
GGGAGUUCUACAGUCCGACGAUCGAAUCAUGUUCCAGCUGCUUGACCCUACCGUGUGGGUUCAGAGCUCGUUUGGGCGUAACAACUAAGUCUCUUUCCAGAUCAGUAUAAUAAAGGAGUGAUGUGCAAUACUUUGGAAUUCUCGGGUGCCAA: 0.615
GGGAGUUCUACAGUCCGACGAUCAUUUUCAUAUAAAAGGUAAGAAAGAGUUUGCAAAGCAUUUGUGGCUUUUUGUAGUUUACUUAAGCCAAAAUGUGUUUUUCCCUCAAUAGCUUCGCUAAUAUUUUAAACAGUGGAAUUCUCGGGUGCCAA: 0.563
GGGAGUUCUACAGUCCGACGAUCGUGUUGGGAGGGCAGGAGCAUUCCUUGAGGAGGAGUGGCAACAUCAAAGUGUUUGUGUCCCUUGCCAGCCUCCCUGGGGUCUGGGGACCUGCAGCAGCAUGUCUGGCAAAUGGAAUUCUCGGGUGCCAA: 2.91
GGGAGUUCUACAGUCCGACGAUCCCACCUGCCCCCUGCGUAGGCACCCAGACUUGGAGAGACCCGUCUGCUGUUAAUACUUCCAUCCUCUUCCUUCCCAAAGAGCAGAUCCCAAGGCAUUUACUCCUUGGUCUUGGAAUUCUCGGGUGCCAA: 0.505
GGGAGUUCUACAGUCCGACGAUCGCGAGCAGCAUCUCUAGGCUCUGGUCCUGUCUGGCCAUGGUGCGCCCGUGGCCCUGCCUCCUAGUGCUCAGGACAGCUCAUUCUCUGUGCAACUUUCAGGAACUUUACUGUGGAAUUCUCGGGUGCCAA: 2.7
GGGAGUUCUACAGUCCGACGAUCGACAGUCGUUUCUUUUCCAGCCUCCUGGCCUUCGGACUCUGAAUCUGGGCAGGAAGAGUCCUCAGUCCCAAGACCAGGAGGGGGCAAUGGGCCCAGCCUUUCUGUGGUAUUGGAAUUCUCGGGUGCCAA: 0.599
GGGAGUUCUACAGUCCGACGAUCCCUUGCACUACCAGAAGAUUCAUACACUUUUGAGACUCCAGUGAGACGCUGUUUUCACCCCUUCCUCCUCCUAGCCUCUCUCCCAAAAAGUAAAACACAAUGCUGAAGAAUGGAAUUCUCGGGUGCCAA: 0.88
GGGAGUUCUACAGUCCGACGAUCGCUGAAGGAAACCAGUGCAACAGCACUGGCUCUCUCCAGGAUCCAGAAGGGGUUUGGUCUGGGACUUCCUUGCUCUCCCUCUUCUCAAGUGCCUUAAUAGUAGGGUAAGUUGGAAUUCUCGGGUGCCAA: 0.332
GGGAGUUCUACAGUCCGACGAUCGAGCUGAGACUGGUUCCCUGAUGCUCCGUCAGCUUCCCUAUGUGGCUGGCUCAUUAUUUUCCUCAAAGCCUUCUGUCUUUCCUGUGCCUGCCUGUGACUCUUUGCACACUUGGAAUUCUCGGGUGCCAA: 1.57

Series 4
Target: RING finger protein unkempt homolog, zinc fingers 1-6, GST-SBP tag (UNK, Homo sapiens, UniProt Q9C0B0, residues 30-357)
Sequence of UniProt Q9C0B0 (30-357, looked up): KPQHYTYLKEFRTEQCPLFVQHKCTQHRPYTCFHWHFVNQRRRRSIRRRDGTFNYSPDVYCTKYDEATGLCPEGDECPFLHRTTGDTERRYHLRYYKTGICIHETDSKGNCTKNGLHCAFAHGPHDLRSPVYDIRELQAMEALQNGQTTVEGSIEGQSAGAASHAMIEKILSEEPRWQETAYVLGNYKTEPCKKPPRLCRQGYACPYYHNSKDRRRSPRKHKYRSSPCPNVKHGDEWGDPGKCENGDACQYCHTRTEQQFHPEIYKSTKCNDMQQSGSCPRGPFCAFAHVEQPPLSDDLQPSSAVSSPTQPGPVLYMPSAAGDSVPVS
Technique: RNA Bind-n-Seq
Molecule type: RNA
Medium: in vitro
Tested at: not given
Setting: RNA with constant flanks, human-mouse chimeric sites, ends assumed
Relative to: input RNA pool
Direction: higher = stronger binding
Quantity: bound/input enrichment
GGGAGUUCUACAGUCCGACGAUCCCCCACAACCAUUUGCAGGUCUGGAACCUGCAUUCUUUUUUUAAAAAACAUGUAUACAUUUUAGGGCUGUAGAUUUAUUUUCCUGGUUUUGUUUUUCAUUGCUGACUUUUGAGCACAGAACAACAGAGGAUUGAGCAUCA: 1.53 ratio
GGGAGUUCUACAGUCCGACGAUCAAAGUGAUAACCAUGUUUGUCCAACGACAGGUAUUUUCUGAGAACAAAGAUGAGAUUGCGUUAGUCCUCUAUGGCACAGAUGGCACUGAUAAUGCCCUUGCUGGCAAGGACCAGUAUCAGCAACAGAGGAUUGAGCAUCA: 0.108 ratio
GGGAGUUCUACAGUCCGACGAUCUAAAUUAGGGCUGCCGUUUUCUGUUUCUCCCUGGGCUGCAGACAGCUAGAAGAUUUUAUCUAGCUUAUACAAGGCUGCUGGUGUUCCCUCUUUUUUUCCACGAGGGUUUUUUUUCCAGCACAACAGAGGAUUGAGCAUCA: 0.755 ratio
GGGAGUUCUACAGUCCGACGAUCUUGCUACUGACUCCCUGGGUCAAGUUCCUGUGGGAAUCUUACAGGCAGUGUUUGGACCUUCUUCGAAACAAUUCUAGAGUAGAGCGCCUUUACCAUGAUAUCGCCCAACAAGCUUUCAAACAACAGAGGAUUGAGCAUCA: 0.169 ratio
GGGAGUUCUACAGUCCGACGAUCCAGCGCCGAGGCCGCGGUUUCCCCCUGGGCCUCCCCAGCAGCAGCCAUGGGCAUCAAGUUUUUAGAAGUUAUUAAACCAUUCUGUGCAGUUCUACCAGAAAUUCAGAAACCGGAAAGGAACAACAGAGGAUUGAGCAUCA: 4.2 ratio
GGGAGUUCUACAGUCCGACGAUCGGGACUGAUUCAUCCCAAGGACAGGCAACCCCAUUUGAUGCCUGGACUGAUGACAGUAUGGAAGGGCCUAGUCAAAAUGUUGAAGCUGAGUCAAUUCAGGAUGCCAUGAGUAUGGAAGAGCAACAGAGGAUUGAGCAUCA: 0.406 ratio
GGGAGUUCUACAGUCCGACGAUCUUGAAAACUGAUUCAAGUAAGUUUGAGUAUCACAAUGUUAGCUUUCUAAUUCCAUAAAAGUACUUGGUACAGUUUCUUUAUAAUCUGACAUCACCCCAGCGCCAUUUAGAUCAGCUUACUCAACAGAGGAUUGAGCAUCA: 2.97 ratio

Series 5
Target: Prothrombin, mature alpha-thrombin (F2, Homo sapiens, UniProt P00734)
Technique: aptamer microarray, sandwich
Molecule type: DNA with 2'F-ANA
Medium: in vitro
Tested at: 200 nM
Setting: whole 15-mer aptamer, many near background
Added: Cy3 exosite-II aptamer, 400 nM
Direction: higher = stronger binding
Quantity: mean fluorescence intensity
Sequence: GGTTGGTGTGGTTGG
2'F-ANA at 1 2 5 6 7 8 9 11 12 13: 80.6 a.u.
2'F-ANA at 1 6 8 10 14 15: 48.5 a.u.
2'F-ANA at 1 2 8 9 12 15: 459 a.u.
2'F-ANA at 1 3 5 6 7 10 11 12 13 14 15: 74.2 a.u.
2'F-ANA at 3 5 6 7 11 14 15: 50 a.u.
2'F-ANA at 9 10 11 12: 200 a.u.
2'F-ANA at 1 2 3 4 7 8 10 15: 60 a.u.
2'F-ANA at 1 2 4 5 8 9 10 11 15: 50.9 a.u.
2'F-ANA at 2 4 7 10 12 13 14 15: 71.9 a.u.
2'F-ANA at 1 5 6 11 12 13 15: 68.6 a.u.
2'F-ANA at 2 3 4 5 6 7 9 12 15: 166 a.u.
2'F-ANA at 1 2 3 6 9 13 14 15: 64.4 a.u.
2'F-ANA at 1 2 3 5 7 9 10 13 15: 47.8 a.u.
2'F-ANA at 1 2 8 10 12 13: 62.2 a.u.
2'F-ANA at 1 3 4 5 7 8 10 14 15: 46.5 a.u.
2'F-ANA at 1 3 6 13 14: 113 a.u.
2'F-ANA at 3 7 8 9 11 12: 1430 a.u.
2'F-ANA at 2 7 11 13 14 15: 132 a.u.
2'F-ANA at 1 4 9 10 11 14: 106 a.u.
2'F-ANA at 1 2 4 6 8 9: 168 a.u.
2'F-ANA at 2 4 5 6 7 9 11: 99.5 a.u.
2'F-ANA at 1 2 3 6 7 9 11 14: 66.9 a.u.

Series 6
Target: Sal-like protein 4, full length isoform A (SALL4, Homo sapiens, UniProt Q9UJQ4, residues 1-1053)
Sequence of UniProt Q9UJQ4 (whole entry, looked up): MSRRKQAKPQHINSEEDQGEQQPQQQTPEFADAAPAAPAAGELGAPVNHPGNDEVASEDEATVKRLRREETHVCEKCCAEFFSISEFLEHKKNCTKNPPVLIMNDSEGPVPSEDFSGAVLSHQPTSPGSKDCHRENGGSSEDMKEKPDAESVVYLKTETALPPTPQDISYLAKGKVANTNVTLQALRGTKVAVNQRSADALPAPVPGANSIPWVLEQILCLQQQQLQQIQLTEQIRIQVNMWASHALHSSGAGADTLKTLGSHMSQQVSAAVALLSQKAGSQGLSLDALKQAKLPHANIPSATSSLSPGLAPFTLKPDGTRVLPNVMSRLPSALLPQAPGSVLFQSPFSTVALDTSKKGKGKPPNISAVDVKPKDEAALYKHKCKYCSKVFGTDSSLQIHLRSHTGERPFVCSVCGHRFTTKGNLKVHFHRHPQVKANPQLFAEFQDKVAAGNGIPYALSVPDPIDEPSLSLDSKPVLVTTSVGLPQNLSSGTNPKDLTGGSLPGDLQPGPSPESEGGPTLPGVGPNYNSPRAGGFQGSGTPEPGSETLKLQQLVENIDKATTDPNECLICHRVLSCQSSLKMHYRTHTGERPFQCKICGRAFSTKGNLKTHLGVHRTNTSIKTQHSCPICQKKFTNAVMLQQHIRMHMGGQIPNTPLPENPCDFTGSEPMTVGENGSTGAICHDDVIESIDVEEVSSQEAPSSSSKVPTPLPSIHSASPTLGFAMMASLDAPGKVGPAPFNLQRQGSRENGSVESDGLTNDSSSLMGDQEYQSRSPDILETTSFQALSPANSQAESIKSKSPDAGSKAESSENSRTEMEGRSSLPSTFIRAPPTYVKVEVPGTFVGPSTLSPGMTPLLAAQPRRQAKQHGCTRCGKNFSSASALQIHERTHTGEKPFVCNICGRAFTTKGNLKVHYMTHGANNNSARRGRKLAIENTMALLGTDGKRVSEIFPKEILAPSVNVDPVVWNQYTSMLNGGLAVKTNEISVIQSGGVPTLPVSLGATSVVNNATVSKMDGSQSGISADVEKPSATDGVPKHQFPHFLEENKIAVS
Technique: universal PBM
Molecule type: double-stranded DNA, one strand shown
Medium: in vitro
Tested at: 600 nM
Setting: 8-mer, flanks averaged, mean of replicates
Direction: higher = stronger binding
Quantity: E-score
CGGAAGGC: -0.244
CAATAGTC: 0.0619
TAGTCTCA: 0.21
GGGGGTCA: -0.301
TTACTGAA: 0.24
CAATAGAA: 0.114
AAGGGCCA: -0.172
GACAAGTC: -0.106
AGTATACC: 0.207
AGTGGTAA: 0.102
GAACAGTA: 0.132
AACCTATA: 0.335
AGTAAATA: 0.368
CGTCCGAC: -0.244
AAACATGG: 0.0798
CCCATTCC: -0.265
AAGAGCGC: -0.16
TAAGGAAA: 0.106
AACTGATG: 0.131
AATCCTTC: 0.0635
GCGTCCCC: -0.32
AAAATACT: 0.292
